Assay results pooled from the literature.
Each numbered part is a random draw from the data of one study; scales do not carry over between parts. Changes are numbered by the printed parent chain.

Study 1
Target: JDP2, bZIP domain (human)
Technique: DHFR protein complementation
Medium: yeast
Notes: single substitutions, most at no-binding floor
Relative to: wild-type JUN-FOS pair
Reading: higher = stronger binding
Parent: JUN, bZIP domain (human); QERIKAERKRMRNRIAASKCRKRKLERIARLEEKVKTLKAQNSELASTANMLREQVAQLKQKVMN; partner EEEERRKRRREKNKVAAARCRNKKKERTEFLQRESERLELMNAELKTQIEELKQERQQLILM
| Change | binding fitness |
| --- | --- |
| T48P | -1.11 natural log |
| Q41P | -1.12 natural log |
| L31M | 0.291 natural log |
| T37F | 0.3 natural log |
| A29F | 0.208 natural log |
| N42C | 0.193 natural log |
| K34G | 0.304 natural log |
| T48Q | 0.289 natural log |
| K36F | 0.2 natural log |
| A40K | 0.313 natural log |
| E32Q | 0.162 natural log |
| S47R | 0.253 natural log |
| A29G | 0.254 natural log |
| A49T | 0.132 natural log |
| A40C | 0.274 natural log |
| K39E | 0.35 natural log |
| K36T | 0.259 natural log |
| T37H | 0.391 natural log |

Study 2
Target: TAR DNA-binding protein 43, full length, His tag (TARDBP, Homo sapiens, UniProt Q13148, residues 1-414)
Technique: RNA Bind-n-Seq
Form: RNA
Medium: in vitro
Concentration: 20 nM
Notes: 6-mer, flanks averaged, single round
Together with: 150 mM LiCl
Relative to: input library
Reading: higher = stronger binding
| Oligonucleotide | 6-mer enrichment (R) |
| --- | --- |
| UGAUGC | 0.984 |
| CUUCUA | 0.854 |
| UUCCUU | 1.02 |
| AUAGUG | 1.11 |
| CUUCCA | 0.862 |
| CUAAGC | 0.817 |
| GAUGCC | 0.947 |
| CGUCGA | 0.938 |
| UACGAG | 0.891 |
| UCCGCC | 0.933 |
| UAUUCU | 0.979 |
| CCGUUA | 0.882 |
| UUACAC | 0.908 |
| AAAUUA | 0.967 |
| CCUCCU | 1.02 |
| UUCAGU | 0.938 |
| AGCCGC | 0.931 |
| GGUGCC | 1.09 |
| GAUGUG | 1.37 |
| AGAUAC | 0.807 |
| CCGUGG | 1.01 |
| AGCGUG | 1.21 |
| GCAUCC | 0.895 |
| UCUGGG | 1.02 |
| CUCGGC | 0.877 |

Study 3
Target: CCNE2, cyclin fold, Cln2 fusion (human)
Technique: yeast growth competition, sequencing
Medium: yeast
Notes: strong parent motif
Relative to: not given
Reading: higher = stronger binding
Parent: BRCA2 docking peptide (human); PSIKRNLLNEFDR
| Change | normalised enrichment score |
| --- | --- |
| PSIKRDLLNEFDR [N6D] | 0.431 |
| PSIKRNLLNEFDQ [R13Q] | 1.2 |
| PSIKRNCLNEFDR [L7C] | -0.802 |
| PSIKRNLLNEFDM [R13M] | 1.2 |
| PSIKRNLLNEFCR [D12C] | 2.02 |
| PSIKRNLLNEFIR [D12I] | 0.438 |
| SSIKRNLLNEFDR [P1S] | 1.42 |
| PSIKRNLLNEDDR [F11D] | -0.089 |
| PSIKVNLLNEFDR [R5V] | 0.825 |
| PSIKRILLNEFDR [N6I] | 0.499 |
| PTIKRNLLNEFDR [S2T] | 1.67 |
| PSIKRNLLEEFDR [N9E] | 1.4 |
| PSIKRNALNEFDR [L7A] | 0.177 |
| ISIKRNLLNEFDR [P1I] | 0.857 |
| VSIKRNLLNEFDR [P1V] | 1.76 |
| PSIKRNLLNEFHR [D12H] | 0.903 |
| PSQKRNLLNEFDR [I3Q] | -0.116 |
| PSIKRNLLNEHDR [F11H] | 0.23 |
| PSIKCNLLNEFDR [R5C] | -0.113 |
| PSIKRRLLNEFDR [N6R] | 1.29 |
| PSIKRNSLNEFDR [L7S] | -0.975 |
| PSIKRNLLNEEDR [F11E] | -0.144 |
| PIIKRNLLNEFDR [S2I] | 0.985 |
| PSIKRNYLNEFDR [L7Y] | 0.154 |
| PSIHRNLLNEFDR [K4H] | 0.401 |

Study 4
Target: RING finger protein unkempt homolog, zinc fingers 1-6, GST-SBP tag (UNK, Homo sapiens, UniProt Q9C0B0, residues 30-357)
Technique: RNA Bind-n-Seq
Form: RNA
Medium: in vitro
Concentration: not given
Notes: RNA with constant flanks, ends assumed
Relative to: input RNA pool
Reading: higher = stronger binding
All sequences stand within: GGGAGUUCUACAGUCCGACGAUC … CAACAGAGGAUUGAGCAUCA
Target sequence (chain): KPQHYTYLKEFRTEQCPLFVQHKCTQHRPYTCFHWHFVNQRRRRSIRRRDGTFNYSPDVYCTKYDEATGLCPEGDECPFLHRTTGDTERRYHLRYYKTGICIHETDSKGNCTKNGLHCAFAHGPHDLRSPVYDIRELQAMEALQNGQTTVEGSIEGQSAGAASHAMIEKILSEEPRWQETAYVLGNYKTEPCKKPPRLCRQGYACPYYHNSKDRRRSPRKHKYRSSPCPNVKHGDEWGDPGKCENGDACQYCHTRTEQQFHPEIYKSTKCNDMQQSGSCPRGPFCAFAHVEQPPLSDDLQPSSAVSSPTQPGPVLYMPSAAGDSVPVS
| Oligonucleotide | bound/input enrichment [ratio] |
| --- | --- |
| AUACCUCCAACAGGGUCACUGUCAAGAACCUCGAUUAUAGCAGGAAGCUGAAAAACGUGCCCGUGACCAUUUACUGGCUGGGGAAAGCUGCAAACAGCUGUGCAUCCUACGGUGGAACCA | 0.146 |
| CUAAUCGCCUCACAAAAAUUCACAGACAAACGCAUUGGCUAUUUAGGAGCAAUGCUAUUAUCCGAUGAAAGACAAGAUGUGCAUCUUCUCAUGACCAACUGUAUCAAGAAUGAUCUUAAU | 0.461 |
| ACGCGGAACAUGGCGCGUUCCUAGAAGCCGUUUUCGGCAUCAGUAGGCGGCAGCGUGUGGACCCGGAGCGUGGGGGACGAGGAAGCAACCAACGCCGCUUCGUGUGGACAAGUGGAAAGG | 0.198 |
| CCGUUUCUAGUAUAUUCCUGUAAAUGUCAGUUACUGAAAAUGAGUCCAAUGUAAGCCGUUCCGCUUGUUUAUUGCAAUGCUGGCCUCAACACAACAGAAUAAAAAUGGUAGAAAGUACUC | 0.358 |
| CCUCUGCUUCCGCACUCCCCUGCCUGCCUUUUGGCAACAUUUUUUUUCUUAUUUUUUUUUAACCGUGUAUAUUUUUUUUCUUUUUCUUUUUUUCUUUUUUUUUUUUAAGAAAAAAACAAA | 30.6 |
| AUGAUUUAUGAGAUCAUUGAUAAUUCUCAAGGAUUUUAUGUAUGCCCAGUGGAGCGCCAGAACCGAAGCAGGAUGAACAUCCCAUUUCGCAUUGGCAACGCCAAAGGAGACGAAGCUUUG | 0.0994 |
| CUGUUUUGACAGCCACACAAUCUUGGCAUGUAUUAAGGAAAAAAAAAAUCCCUGUUGAAGCCGUUUUUCCACCUAUCAGCACUGAGUAAAUGCCAUAACUCCGCGGAAAUGGUCUAAAUA | 0.195 |
| CACUCCUCGAAGCAGGGUCACCUUUUAGGAAAGGUCCCCCACAGCUACCUCCAGUAGCUUCUCCGUUCGUGGUAGGCUUCAUGAGCCCCUCCCUGCUCUGUGCUGGGAUUUUGACUUCUG | 0.21 |
| GAGCAAUUUGAGAGGUACCUGCAUGACGAGAGCGGCUUGAACAGGCGGCACAUCAUUGAUAACCGGGUGCAUUGUUGCUUUUACUUUAUUUCACCUUUUGGACAUGGACUUAAGCCCUUA | 0.186 |
| UGGCAGCUGGCUUCUUUGGCUCGUUAUUAUGUCUGUGAGAUUUAUUCAUGUUGCUGUGCGCCGUACCGUUUGUGCAUGUUCAUUGCUAAAAACUUCCAUUGUUUGGCUGUAUCGUAGUUC | 0.383 |
| AUCACCCAGCUGAAUCUUAGCGGCUACAGAAAGAAUCUCCAGAAAUCAGAUCUCUCUACUUCCGUCCGAAGAUGCCCCAAUCUUGUCCAUCUAGACUUAAGUGAUAGUGUCAUGCUAAAG | 0.217 |

Study 5
Target: ABI1, truncated, D143A, DHFR fusion (Arabidopsis thaliana)
Technique: DHFR PCA, deep sequencing
Medium: yeast
Notes: methotrexate growth selection, single substitutions
Together with: (+)-ABA 0.0091 µM
Relative to: wild-type fitted maximum
Reading: higher = stronger binding
Parent: PYL1, truncated, DHFR fusion (Arabidopsis thaliana); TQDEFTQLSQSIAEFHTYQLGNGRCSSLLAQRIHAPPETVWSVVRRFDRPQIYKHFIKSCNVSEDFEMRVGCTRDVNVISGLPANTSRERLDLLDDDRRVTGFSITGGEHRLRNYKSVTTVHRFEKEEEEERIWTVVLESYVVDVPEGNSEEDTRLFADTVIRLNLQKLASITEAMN; partner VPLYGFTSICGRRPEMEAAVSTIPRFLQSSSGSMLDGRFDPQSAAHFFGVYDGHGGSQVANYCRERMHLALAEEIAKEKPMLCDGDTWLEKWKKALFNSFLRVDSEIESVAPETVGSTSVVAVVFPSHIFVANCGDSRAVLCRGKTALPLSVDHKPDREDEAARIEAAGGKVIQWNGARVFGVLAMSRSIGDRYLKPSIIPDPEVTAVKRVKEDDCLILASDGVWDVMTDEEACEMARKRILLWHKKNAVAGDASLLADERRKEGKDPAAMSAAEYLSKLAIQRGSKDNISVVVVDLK
| Change | relative binding score |
| --- | --- |
| R24N | 4.64% |
| Q2L | 63.2% |
| F66I | -3.11% |
| V44T | 0.668% |
| T119Q | -0.735% |
| N77C | 54.4% |
| N114Q | 2.67% |
| N77Y | 41.5% |
| L112H | -5.5% |
| N61R | 50.6% |
| E89W | 12.6% |
| T120H | -1.03% |
| E131H | 65.1% |

Repeated from above (study 2):
| Oligonucleotide | 6-mer enrichment (R) |
| --- | --- |
| UUCCUU | 1.02 |
| AUAGUG | 1.11 |
| CUUCCA | 0.862 |
| CUAAGC | 0.817 |
| GAUGCC | 0.947 |
| CGUCGA | 0.938 |
| UACGAG | 0.891 |
| UCCGCC | 0.933 |
| UAUUCU | 0.979 |
| CCGUUA | 0.882 |
| UUACAC | 0.908 |
| AAAUUA | 0.967 |
| CCUCCU | 1.02 |
